# Experimental data gathered from unrelated publications.
# Protocols differ between the studies behind these lines. ± gives the spread as reported.
# CBF1: CBF1 1-351 (Saccharomyces cerevisiae, UniProt P17106)
# UniProt P17106, sequence (whole entry, looked up): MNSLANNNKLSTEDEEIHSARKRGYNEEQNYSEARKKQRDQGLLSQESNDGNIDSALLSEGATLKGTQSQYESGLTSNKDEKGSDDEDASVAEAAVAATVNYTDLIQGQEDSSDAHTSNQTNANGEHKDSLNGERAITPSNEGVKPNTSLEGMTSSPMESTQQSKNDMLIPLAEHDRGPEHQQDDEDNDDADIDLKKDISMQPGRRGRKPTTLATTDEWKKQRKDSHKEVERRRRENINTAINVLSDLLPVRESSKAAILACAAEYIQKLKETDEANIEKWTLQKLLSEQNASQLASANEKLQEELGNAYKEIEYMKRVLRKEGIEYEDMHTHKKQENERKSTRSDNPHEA
# SUA7 full length assumed: SUA7 full length assumed (Saccharomyces cerevisiae, UniProt P29055)
# UniProt P29055, sequence (whole entry, looked up): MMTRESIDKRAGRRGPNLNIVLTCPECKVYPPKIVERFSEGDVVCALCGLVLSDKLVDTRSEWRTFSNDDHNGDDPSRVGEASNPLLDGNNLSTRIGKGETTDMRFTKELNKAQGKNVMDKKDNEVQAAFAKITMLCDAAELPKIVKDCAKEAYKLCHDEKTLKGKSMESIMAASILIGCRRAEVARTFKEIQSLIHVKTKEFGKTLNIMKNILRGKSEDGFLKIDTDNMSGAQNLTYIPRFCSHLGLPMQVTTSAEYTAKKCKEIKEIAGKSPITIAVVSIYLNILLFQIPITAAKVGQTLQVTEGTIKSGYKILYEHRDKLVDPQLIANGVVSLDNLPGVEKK
# U2AF2: U2AF2 148-342 (Homo sapiens, UniProt P26368)
# UniProt P26368, sequence (whole entry, looked up): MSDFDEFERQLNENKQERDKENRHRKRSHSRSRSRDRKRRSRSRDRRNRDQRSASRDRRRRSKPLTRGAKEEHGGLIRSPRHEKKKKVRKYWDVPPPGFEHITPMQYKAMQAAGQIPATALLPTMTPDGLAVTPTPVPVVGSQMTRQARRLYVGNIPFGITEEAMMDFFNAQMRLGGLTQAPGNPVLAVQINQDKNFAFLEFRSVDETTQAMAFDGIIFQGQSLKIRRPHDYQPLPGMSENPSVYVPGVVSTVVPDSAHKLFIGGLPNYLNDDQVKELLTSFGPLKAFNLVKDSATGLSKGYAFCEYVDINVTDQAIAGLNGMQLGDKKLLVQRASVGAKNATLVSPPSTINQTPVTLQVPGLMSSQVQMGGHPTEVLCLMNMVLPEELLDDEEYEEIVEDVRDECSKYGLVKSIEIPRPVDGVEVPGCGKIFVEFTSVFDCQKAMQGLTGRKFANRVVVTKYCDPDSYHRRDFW
# MECP2: MECP2 1-486 (Homo sapiens, UniProt P51608)
# PHO4: PHO4 1-312 (Saccharomyces cerevisiae, UniProt P07270)
# UniProt P07270, sequence (whole entry, looked up): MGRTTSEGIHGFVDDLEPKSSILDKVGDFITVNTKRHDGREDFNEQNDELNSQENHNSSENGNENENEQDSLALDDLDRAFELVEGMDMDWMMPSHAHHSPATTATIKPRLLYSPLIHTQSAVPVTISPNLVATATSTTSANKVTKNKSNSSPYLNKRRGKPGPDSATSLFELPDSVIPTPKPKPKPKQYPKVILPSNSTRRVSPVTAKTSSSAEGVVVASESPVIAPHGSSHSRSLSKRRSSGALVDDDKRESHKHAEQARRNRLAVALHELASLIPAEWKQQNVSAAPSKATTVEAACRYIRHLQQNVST
# TOA1/TOA2 1-286; 1-122: TOA1/TOA2 1-286; 1-122 (Saccharomyces cerevisiae)
# pdhR full length assumed: pdhR full length assumed (Escherichia coli, UniProt P0ACL9)
# UniProt P0ACL9, sequence (whole entry, looked up): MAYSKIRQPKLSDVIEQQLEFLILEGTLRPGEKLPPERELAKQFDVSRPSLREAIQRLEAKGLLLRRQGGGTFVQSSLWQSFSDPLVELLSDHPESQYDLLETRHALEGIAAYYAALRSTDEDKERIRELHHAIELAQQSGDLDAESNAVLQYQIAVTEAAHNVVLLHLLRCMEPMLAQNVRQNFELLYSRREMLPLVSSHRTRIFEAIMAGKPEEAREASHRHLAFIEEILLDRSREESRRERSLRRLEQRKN
# SPT15 full length assumed: SPT15 full length assumed (Saccharomyces cerevisiae, UniProt P13393)
# UniProt P13393, sequence (whole entry, looked up): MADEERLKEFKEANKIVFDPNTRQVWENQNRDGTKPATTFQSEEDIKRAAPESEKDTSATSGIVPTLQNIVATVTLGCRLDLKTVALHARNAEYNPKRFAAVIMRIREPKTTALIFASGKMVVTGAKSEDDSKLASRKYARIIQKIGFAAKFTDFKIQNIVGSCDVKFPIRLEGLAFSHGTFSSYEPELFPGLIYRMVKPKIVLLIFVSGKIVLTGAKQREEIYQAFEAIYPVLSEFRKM
# TGM2: TGM2 2-687 (Homo sapiens, UniProt P21980)
# UniProt P21980, sequence (whole entry, looked up): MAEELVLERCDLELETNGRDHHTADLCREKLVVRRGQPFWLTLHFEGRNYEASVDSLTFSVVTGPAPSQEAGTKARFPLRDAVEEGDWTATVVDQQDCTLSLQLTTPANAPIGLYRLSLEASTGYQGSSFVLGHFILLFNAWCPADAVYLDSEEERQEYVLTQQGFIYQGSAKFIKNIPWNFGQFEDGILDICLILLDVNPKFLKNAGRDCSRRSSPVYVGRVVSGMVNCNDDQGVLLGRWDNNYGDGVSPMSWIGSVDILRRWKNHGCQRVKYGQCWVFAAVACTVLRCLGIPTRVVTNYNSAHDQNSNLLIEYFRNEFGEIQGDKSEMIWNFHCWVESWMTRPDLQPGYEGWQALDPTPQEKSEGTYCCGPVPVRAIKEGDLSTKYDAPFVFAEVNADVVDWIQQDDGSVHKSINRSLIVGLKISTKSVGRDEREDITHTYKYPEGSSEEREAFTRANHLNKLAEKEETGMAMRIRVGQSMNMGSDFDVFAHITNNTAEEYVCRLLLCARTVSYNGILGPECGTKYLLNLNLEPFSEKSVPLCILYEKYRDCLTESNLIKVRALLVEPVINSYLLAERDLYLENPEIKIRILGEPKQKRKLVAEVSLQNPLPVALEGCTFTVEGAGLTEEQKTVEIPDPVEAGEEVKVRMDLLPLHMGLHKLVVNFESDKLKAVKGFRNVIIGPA
# T1: TOA1/TOA2 1-286; 1-122 (Saccharomyces cerevisiae); chain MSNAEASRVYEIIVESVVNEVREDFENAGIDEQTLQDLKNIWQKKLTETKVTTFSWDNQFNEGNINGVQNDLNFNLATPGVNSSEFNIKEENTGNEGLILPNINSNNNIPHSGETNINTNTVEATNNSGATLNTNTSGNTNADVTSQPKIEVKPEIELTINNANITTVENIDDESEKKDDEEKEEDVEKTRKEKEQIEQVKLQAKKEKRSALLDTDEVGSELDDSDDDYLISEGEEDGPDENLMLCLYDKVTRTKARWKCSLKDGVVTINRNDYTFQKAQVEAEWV; chain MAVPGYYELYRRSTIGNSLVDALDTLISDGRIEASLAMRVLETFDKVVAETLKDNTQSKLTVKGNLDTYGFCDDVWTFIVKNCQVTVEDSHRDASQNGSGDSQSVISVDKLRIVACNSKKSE
# UniProt P0A9W0, sequence (whole entry, looked up): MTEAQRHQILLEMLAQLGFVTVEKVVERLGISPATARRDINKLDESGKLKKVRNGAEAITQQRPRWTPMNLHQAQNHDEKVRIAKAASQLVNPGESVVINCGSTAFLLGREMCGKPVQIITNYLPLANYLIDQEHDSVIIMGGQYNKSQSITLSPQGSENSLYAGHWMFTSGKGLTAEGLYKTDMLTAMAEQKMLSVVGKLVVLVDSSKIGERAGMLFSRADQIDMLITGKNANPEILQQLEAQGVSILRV
# UniProt P07676, sequence (whole entry, unmodified, looked up): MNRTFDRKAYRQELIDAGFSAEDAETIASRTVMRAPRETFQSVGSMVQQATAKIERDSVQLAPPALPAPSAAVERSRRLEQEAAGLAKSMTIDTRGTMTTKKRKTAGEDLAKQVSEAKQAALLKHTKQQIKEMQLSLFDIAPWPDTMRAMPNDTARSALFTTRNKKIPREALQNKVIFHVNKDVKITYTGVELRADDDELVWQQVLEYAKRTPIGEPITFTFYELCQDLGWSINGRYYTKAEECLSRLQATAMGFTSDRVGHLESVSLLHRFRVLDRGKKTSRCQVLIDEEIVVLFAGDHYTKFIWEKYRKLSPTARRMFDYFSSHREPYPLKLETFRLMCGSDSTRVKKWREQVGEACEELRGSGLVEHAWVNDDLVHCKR
# UniProt P40917, sequence (whole entry, looked up): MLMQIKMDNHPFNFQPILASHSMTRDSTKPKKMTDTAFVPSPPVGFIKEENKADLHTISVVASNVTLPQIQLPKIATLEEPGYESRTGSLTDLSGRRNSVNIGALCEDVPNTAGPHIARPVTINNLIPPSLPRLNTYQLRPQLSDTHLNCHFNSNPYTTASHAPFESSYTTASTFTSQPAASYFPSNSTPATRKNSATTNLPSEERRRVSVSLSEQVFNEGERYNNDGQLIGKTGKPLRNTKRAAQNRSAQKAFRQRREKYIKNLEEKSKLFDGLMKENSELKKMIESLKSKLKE
# UniProt P0AFB8, sequence (whole entry, looked up): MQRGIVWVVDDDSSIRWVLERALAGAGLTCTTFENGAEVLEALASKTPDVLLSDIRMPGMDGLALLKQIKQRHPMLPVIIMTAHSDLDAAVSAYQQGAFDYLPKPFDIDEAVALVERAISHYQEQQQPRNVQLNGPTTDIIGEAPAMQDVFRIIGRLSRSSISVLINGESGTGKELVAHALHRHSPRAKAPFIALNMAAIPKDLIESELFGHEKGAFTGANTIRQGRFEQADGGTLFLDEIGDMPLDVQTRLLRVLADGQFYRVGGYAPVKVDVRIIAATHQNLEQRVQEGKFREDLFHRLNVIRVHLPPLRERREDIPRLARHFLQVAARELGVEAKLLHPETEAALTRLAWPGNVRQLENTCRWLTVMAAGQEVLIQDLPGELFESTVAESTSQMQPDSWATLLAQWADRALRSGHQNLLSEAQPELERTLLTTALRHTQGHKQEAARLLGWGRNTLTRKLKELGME
# UniProt Q9NR56, sequence (whole entry, looked up): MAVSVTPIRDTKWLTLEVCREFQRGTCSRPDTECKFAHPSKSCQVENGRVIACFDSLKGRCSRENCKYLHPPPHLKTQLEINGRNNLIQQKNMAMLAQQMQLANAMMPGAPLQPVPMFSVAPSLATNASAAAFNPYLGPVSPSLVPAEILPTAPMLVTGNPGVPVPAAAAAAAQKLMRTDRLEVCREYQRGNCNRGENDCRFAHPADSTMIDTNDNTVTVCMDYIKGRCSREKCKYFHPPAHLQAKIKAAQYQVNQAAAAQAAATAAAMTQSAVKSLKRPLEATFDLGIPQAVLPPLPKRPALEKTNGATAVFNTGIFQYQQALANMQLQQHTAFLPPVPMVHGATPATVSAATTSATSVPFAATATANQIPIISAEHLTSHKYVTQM
# UniProt P15976, sequence (whole entry, looked up): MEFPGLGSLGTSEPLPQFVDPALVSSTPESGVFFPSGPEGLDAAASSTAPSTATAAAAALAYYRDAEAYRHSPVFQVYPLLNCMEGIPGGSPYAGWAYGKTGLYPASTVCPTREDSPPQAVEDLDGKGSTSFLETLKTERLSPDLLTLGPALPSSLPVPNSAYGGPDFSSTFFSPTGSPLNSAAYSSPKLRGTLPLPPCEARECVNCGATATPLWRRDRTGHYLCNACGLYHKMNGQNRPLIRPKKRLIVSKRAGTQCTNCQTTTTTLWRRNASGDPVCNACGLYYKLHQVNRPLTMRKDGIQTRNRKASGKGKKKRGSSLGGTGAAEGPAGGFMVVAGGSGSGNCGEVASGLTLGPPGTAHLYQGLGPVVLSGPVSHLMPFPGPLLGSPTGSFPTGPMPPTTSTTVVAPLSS
Substance,tested on,assay,test system,setting,scale,measurement,result
CGCGACAACGTGAGAACGTGATAACGTGCCAACGTGCGAACGTGCTAACGTGGCACTCCGGCGGTATGAC (dsDNA),"CBF1 full length assumed (Saccharomyces cerevisiae, UniProt P17106)",MITOMI,"double-stranded DNA, one strand shown",not purified,,Kd,110 ± 10 nM
CAATACACTGTTATCAGACTCACGTGTCGAGCTACTCGTTCGGTTATCCGGCGGTATGAC (dsDNA),CBF1,MITOMI,"double-stranded DNA, one strand shown",not purified,,Kd,82 ± 4 nM
CTCAGGAATTCCTATACAGTAATGTGGAGCTCAGTTCAAGTCAATCGGTCC (dsDNA; 5'-amino-C6 primer),SUA7 full length assumed,array,"double-stranded DNA, one strand shown",TFIIB alone,,Kd,7.83 ± 2.18 nM
AUUUUGGCU (ssRNA),U2AF2,sequencing of bound RNA,RNA,motif only,,Kd,1440 nM
CGGCAGGACGUACAUCCCUCCCGGCUCCCCUCCCGCUGGCCUGCCG (RNA; extended stem-loop),MECP2,fluorescence polarization,folded RNA,Hill coefficient 1.70,,Kd,1.44 ± 0.01 nM
CAATACACTGTTATCAGACACACGTGTCGCGCTACTCGTTCGGTTATCCGGCGGTATGAC (dsDNA),PHO4,MITOMI,"double-stranded DNA, one strand shown",not purified,,Kd,143 ± 4 nM
GCAGCCCTGGTTAAAAACAAGGTTTATAAATATTGGTTTAAAAGCAGGTTAAAAGACAGGTTAGCGGTGG (ssDNA),"trfA 98-382 G254D/S267L (Escherichia coli, UniProt P07676)",SPR,single-stranded DNA,,,Kd,50.9 nM
GCGGATGAAGACTGGTGTGGTTGGGGGTCTGGCGGGGGGTGGGGAGGGCTGCGGGTGTGCCCTAAATACGAGCAAC (ssDNA; single-stranded),"Superoxide dismutase [Cu-Zn] 1-154 (Botrytis cinerea, UniProt A0A384JBV7)",ELONA,folded DNA,,,Kd,0.83 ± 0.22 nM
GCGGUGUAUAGCCUAAUCUUUACCGC (structured RNA),MECP2,fluorescence polarization,folded RNA,Hill coefficient 0.64,,Kd,26.8 ± 3.6 nM
CTTGAAGGGGGGCTATAAAAGGGGGTGGGGGCGCGTCAAGTCAATCGGTCC (dsDNA; 5'-amino-C6 primer),"T1, TOA1/TOA2 1-286; 1-122 (Saccharomyces cerevisiae)",array,"double-stranded DNA, one strand shown",TFIIA alone,,Kd,134 ± 67.7 nM
TTGACAAAATTTGAAAGTTGGAAAAATTTTCCAATAAATAGAGGTAGGAATAAAATGGCAA (dsDNA),"glnG full length assumed (Escherichia coli, UniProt P0AFB8)",BLI,"double-stranded DNA, one strand shown",,,Kd,13000 nM
GUUAUUUUU (ssRNA),U2AF2,sequencing of bound RNA,RNA,motif only,,Kd,1170 nM
CAATACACTGTTATCAGACACACGTGTCCAGCTACTCGTTCGGTTATCCGGCGGTATGAC (dsDNA),CBF1,MITOMI,"double-stranded DNA, one strand shown",not purified,,Kd,111 ± 5 nM
TCCTGAAGGGGCGCCCTAGCTTGGTCCTATCGTCGTCAAGTCAATCGGTCC (dsDNA; 5'-amino-C6 primer),"T1, TOA1/TOA2 1-286; 1-122 (Saccharomyces cerevisiae)",array,"double-stranded DNA, one strand shown",TFIIA alone,,Kd,108 ± 70.5 nM
AGATCTCCATCCTTGGGATATGGCTACCAGAAAGTAAAGGGACGATACAAGTCAAGTGAGA (dsDNA),pdhR full length assumed,BLI,"double-stranded DNA, one strand shown",,,Kd,6110 nM
CAATACACTGTTATCAGACACACGTGTTGAGCTACTCGTTCGGTTATCCGGCGGTATGAC (dsDNA),CBF1,MITOMI,"double-stranded DNA, one strand shown",not purified,,Kd,208 ± 10 nM
GTTCAATTCGAATCAATATGTGATTGGTTTTGATTAATCCTGACACTATTTTTTCAGGAAG (dsDNA),"ulaR full length assumed (Escherichia coli, UniProt P0A9W0)",BLI,"double-stranded DNA, one strand shown",,,Kd,10.7 nM
CAATACACTGTTATCGGACACACGTGTCGAGCTACTCGTTCGGTTATCCGGCGGTATGAC (dsDNA),CBF1,MITOMI,"double-stranded DNA, one strand shown",not purified,,Kd,217 ± 12 nM
CAAATGTATGCACCATATCCATTCTAAACATAGTTTCAAGTCAATCGGTCC (dsDNA; 5'-amino-C6 primer),SPT15 full length assumed,array,"double-stranded DNA, one strand shown",TBP alone,,Kd,19.3 ± 1.11 nM
GGGCUGCUGCUGCUGCUGCUGCUGCUGCUGCUGCUGCUGCCC (structured RNA),"MBNL1 1-253 (Homo sapiens, UniProt Q9NR56)",EMSA,folded RNA,,,Kd,9 ± 1 nM
GGUGCCUCCCAGUGGUCUUUGUAGACUGCCUGAUGGAGUCACCC (RNA; hairpin with internal loops/bulges),"GATA1 200-311 (Homo sapiens, UniProt P15976)",fluorescence anisotropy,folded RNA,,,Kd,510 ± 70 nM
CAATACACTGTTATCTGACACACGTGTCGAGCTACTCGTTCGGTTATCCGGCGGTATGAC (dsDNA),PHO4,MITOMI,"double-stranded DNA, one strand shown",not purified,,Kd,153 ± 4 nM
GTTCCTGAATATAAAAGGGGGGGGCGGGGTGGGGGTCAAGTCAATCGGTCC (dsDNA; 5'-amino-C6 primer),SPT15 full length assumed,array,"double-stranded DNA, one strand shown",TBP alone,,Kd,4.88 ± 0.34 nM
GGGAGCAGGAGAGAGGUCAGAUGACACACGAGAGAUGUUGCCUGCUACCCGCACCUAUGCGUGCUAGUGUGA (ssRNA; 2'-fluoro pyrimidines),TGM2,SPR,RNA,with: MgCl2 5 mM,higher = more binding,relative binding,0.7 RU
CUCUCUCGU (ssRNA),U2AF2,sequencing of bound RNA,RNA,motif only,,Kd,2080 nM
GGAACGAUACAGAGAAGAUUAG (ssRNA),"SART3 671-877 (Homo sapiens, UniProt Q15020)",fluorescence polarization,RNA,NaCl 150 mM,,Kd,188 ± 5 nM
colistin,Acinetobacter baumannii,broth microdilution,clinical isolate RKI-No_16/16,,,MIC,64 µg/mL
CGCTGATCACGTGATGACGTGATTACGTGCAGACGTGCATACGTGCCCACGTGCCCTCCGGCGGTATGAC (dsDNA),"CIN5 full length assumed (Saccharomyces cerevisiae, UniProt P40917)",MITOMI,"double-stranded DNA, one strand shown",not purified,,Kd,790 ± 60 nM
CAATACACTGTTATCAAACACACGTGTCGAGCTACTCGTTCGGTTATCCGGCGGTATGAC (dsDNA),CBF1,MITOMI,"double-stranded DNA, one strand shown",not purified,,Kd,204 ± 13 nM
GUUUUACUU (ssRNA),U2AF2,sequencing of bound RNA,RNA,motif only,,Kd,3030 nM
CAATACACTGTTATCAGACACACGTGTCGAACTACTCGTTCGGTTATCCGGCGGTATGAC (dsDNA),PHO4,MITOMI,"double-stranded DNA, one strand shown",not purified,,Kd,121 ± 3 nM
CTGAAGGGGGGGCTATAAAAGAAGGTGGGGGCTCCTCAAGTCAATCGGTCC (dsDNA; 5'-amino-C6 primer),SUA7 full length assumed,array,"double-stranded DNA, one strand shown",TFIIB alone,,Kd,3.89 ± 0.59 nM
UCUUAUUUU (ssRNA),U2AF2,sequencing of bound RNA,RNA,motif only,,Kd,8590 nM
ACAAAAGGGGAGTGCTGAAGGAGTCTGGGCGGGCAATTGGTATAACCAATGTGAAATAAAA (dsDNA),pdhR full length assumed,BLI,"double-stranded DNA, one strand shown",,,Kd,3.95 nM
AUUCUGAUU (ssRNA),U2AF2,sequencing of bound RNA,RNA,motif only,,Kd,12100 nM
GGGAGCAGGAGAGAGGUCAGAUGGUCGAGACUUUGAGGGUUCUCCUGCUGUAACCUAUGCGUGCUAGUGUGA (ssRNA; 2'-fluoro pyrimidines),TGM2,SPR,RNA,with: MgCl2 5 mM,higher = more binding,relative binding,59.8 RU
GGUUGUGUA (ssRNA),U2AF2,sequencing of bound RNA,RNA,motif only,,Kd,4970 nM
GTTCCTGAAGGGGGGGCTATAAACGGGGGTGGGGGTCAAGTCAATCGGTCC (dsDNA; 5'-amino-C6 primer),"T1, TOA1/TOA2 1-286; 1-122 (Saccharomyces cerevisiae)",array,"double-stranded DNA, one strand shown",TFIIA alone,,Kd,14.3 ± 10.4 nM
CACGUUUUU (ssRNA),U2AF2,sequencing of bound RNA,RNA,motif only,,Kd,4480 nM
CTCAATCAATTTGTGAAGGTATAACTGTAGCCGTGTCAAGTCAATCGGTCC (dsDNA; blunt; 5'-amino-C6 primer),SPT15 full length assumed,EMSA,"double-stranded DNA, one strand shown",,,Kd,37 ± 21 nM

# A few entries again:
Substance,tested on,assay,test system,setting,scale,measurement,result
TCCTGAAGGGGCGCCCTAGCTTGGTCCTATCGTCGTCAAGTCAATCGGTCC (dsDNA; 5'-amino-C6 primer),"T1, TOA1/TOA2 1-286; 1-122 (Saccharomyces cerevisiae)",array,"double-stranded DNA, one strand shown",TFIIA alone,,Kd,108 ± 70.5 nM
AGATCTCCATCCTTGGGATATGGCTACCAGAAAGTAAAGGGACGATACAAGTCAAGTGAGA (dsDNA),pdhR full length assumed,BLI,"double-stranded DNA, one strand shown",,,Kd,6110 nM
CAATACACTGTTATCAGACACACGTGTTGAGCTACTCGTTCGGTTATCCGGCGGTATGAC (dsDNA),CBF1,MITOMI,"double-stranded DNA, one strand shown",not purified,,Kd,208 ± 10 nM
